Measurements pooled from the literature.
Parts stem from different laboratories: compare values within a part only. Several values in a cell are separate wells, animals, samples, runs or records.
UniProt P09769, sequence (whole entry, looked up): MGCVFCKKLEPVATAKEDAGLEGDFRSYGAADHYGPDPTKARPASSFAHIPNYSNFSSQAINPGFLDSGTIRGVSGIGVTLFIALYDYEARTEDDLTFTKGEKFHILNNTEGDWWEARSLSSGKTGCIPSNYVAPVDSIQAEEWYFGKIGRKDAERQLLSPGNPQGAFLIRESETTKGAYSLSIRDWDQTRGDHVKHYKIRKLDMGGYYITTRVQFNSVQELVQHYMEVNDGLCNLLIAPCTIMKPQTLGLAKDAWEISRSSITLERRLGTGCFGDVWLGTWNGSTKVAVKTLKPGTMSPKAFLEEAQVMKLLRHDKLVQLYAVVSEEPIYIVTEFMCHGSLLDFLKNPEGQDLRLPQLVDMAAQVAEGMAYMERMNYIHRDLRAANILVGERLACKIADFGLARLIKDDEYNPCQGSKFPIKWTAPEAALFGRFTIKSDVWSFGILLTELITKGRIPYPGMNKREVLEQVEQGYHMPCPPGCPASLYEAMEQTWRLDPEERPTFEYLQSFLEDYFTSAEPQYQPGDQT
UniProt P27361, sequence (whole entry, looked up): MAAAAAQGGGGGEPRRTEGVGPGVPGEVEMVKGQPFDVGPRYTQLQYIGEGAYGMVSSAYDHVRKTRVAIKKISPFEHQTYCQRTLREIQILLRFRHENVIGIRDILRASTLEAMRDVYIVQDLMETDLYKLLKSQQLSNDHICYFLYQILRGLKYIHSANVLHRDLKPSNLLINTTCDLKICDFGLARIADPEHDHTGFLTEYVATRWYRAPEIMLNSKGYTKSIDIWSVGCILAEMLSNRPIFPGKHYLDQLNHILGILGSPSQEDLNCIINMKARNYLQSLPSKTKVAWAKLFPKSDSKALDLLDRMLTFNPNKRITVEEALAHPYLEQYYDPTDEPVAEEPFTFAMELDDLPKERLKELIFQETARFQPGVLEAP
UniProt P24723, sequence (whole entry, looked up): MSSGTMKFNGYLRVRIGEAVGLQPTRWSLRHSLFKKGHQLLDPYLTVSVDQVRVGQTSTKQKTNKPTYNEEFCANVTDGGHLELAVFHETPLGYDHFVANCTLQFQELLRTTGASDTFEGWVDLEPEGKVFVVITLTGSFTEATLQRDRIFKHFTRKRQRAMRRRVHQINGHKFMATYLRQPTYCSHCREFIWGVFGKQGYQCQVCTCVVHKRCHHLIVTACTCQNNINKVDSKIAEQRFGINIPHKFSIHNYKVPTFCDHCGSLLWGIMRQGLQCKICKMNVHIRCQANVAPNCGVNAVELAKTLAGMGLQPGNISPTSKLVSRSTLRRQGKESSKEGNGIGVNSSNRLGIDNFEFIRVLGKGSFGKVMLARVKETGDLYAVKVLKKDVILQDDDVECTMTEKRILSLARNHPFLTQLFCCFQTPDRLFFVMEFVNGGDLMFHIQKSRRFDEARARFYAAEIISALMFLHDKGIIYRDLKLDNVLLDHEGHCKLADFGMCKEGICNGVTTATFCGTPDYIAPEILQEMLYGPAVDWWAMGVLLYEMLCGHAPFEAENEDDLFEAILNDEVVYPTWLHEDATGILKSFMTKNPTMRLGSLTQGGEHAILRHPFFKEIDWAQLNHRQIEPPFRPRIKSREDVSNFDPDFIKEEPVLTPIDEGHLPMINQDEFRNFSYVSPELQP
UniProt P33981, sequence (whole entry, looked up): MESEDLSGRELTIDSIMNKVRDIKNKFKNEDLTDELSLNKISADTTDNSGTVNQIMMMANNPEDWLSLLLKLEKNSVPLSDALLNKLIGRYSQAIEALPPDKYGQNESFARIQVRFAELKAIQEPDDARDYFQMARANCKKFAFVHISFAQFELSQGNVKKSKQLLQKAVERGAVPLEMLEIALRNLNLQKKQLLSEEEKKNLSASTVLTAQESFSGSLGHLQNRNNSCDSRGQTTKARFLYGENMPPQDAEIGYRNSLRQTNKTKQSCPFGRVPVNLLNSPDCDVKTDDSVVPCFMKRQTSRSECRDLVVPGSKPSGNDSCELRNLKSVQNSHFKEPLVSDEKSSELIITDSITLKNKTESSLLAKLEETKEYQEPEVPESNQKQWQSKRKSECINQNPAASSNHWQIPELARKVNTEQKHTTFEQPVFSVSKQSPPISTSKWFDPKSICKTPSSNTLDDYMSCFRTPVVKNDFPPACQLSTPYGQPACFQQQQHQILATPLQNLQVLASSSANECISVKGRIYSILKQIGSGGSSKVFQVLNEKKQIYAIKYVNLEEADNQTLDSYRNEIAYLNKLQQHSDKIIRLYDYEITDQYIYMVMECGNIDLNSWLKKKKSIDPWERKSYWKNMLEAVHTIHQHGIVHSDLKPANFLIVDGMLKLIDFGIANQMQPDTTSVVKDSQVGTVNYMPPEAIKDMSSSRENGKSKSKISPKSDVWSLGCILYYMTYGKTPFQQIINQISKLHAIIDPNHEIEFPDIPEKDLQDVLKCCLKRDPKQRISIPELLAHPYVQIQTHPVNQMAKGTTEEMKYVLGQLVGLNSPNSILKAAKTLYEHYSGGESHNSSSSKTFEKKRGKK
UniProt P11802, sequence (whole entry, looked up): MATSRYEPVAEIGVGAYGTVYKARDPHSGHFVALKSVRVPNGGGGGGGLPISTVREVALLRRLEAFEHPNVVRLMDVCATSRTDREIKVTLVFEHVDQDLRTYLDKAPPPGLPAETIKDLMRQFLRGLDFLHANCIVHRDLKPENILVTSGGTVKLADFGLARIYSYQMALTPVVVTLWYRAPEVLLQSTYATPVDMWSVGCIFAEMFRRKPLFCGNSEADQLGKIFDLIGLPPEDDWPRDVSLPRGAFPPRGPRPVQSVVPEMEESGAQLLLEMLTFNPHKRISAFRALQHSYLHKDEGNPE

Set 1
Target: Serine/threonine-protein kinase BRSK1 (BRSK1, Homo sapiens, UniProt Q8TDC3)
Read-out: enzyme activity
Action: inhibitor
Tested at: 0.5 µM
Relative to: control
Endpoint: remaining activity
Residues (Q8TDC3 1-778): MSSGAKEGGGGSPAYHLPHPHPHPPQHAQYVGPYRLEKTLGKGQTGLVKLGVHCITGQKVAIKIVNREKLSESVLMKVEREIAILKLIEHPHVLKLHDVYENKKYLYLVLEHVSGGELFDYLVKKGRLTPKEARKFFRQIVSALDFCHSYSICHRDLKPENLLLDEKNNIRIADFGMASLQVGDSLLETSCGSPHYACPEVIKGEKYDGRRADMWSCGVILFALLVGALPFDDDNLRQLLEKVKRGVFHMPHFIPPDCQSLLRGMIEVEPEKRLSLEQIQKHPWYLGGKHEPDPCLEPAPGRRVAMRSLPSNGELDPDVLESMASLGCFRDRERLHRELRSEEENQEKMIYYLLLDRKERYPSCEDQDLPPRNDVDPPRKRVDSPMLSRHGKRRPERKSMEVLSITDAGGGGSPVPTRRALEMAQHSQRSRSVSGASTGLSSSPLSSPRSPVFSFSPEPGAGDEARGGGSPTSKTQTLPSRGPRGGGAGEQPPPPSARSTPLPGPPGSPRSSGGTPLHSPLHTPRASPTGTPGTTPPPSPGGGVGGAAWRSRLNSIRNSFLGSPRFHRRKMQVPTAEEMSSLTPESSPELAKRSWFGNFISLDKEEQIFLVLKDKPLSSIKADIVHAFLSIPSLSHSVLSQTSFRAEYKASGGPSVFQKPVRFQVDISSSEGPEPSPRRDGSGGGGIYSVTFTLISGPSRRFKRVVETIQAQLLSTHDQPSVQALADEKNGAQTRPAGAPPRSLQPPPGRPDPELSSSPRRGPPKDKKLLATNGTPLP
O=C1NC(=O)/C(=C/c2ccc3c(c2)OC(F)(F)O3)S1: 88%
N#CC(c1ccnc(NCCc2cccnc2)n1)c1nc2ccccc2s1 (stereo not shown): 92.7%
CCCCc1c(-c2ccc(OC)cc2)[nH]c2nccnc12: 89.1%
COc1cccc(-c2cc(=O)c3ccccc3o2)c1N: 84.9%
CC(C)n1cnc2c(Nc3cccc(Cl)c3)nc(NCCO)nc21: 93.1%
CC(C)N(CCC(=O)c1ccc2ccccc2c1)Cc1ccccc1: 98%
c1cc(-c2cnn3cc(-c4ccc(OCCN5CCCCC5)cc4)cnc23)ccn1: 74.5%
O=C(O)/C=C/c1cc(Br)c(Br)c(Br)c1Br: 80.5%
NC(=O)c1cccc(-c2cc(Nc3ccc(OC(F)(F)F)cc3)ncn2)c1: 98.4%
CN1CCN(c2ccc3nc(-c4c(N)c5c(F)cccc5[nH]c4=O)[nH]c3c2)CC1: 59.8%
O=C(c1ccccc1)c1ccc(N2CCOCC2)cc1O: 103%
O=Nc1c(-c2c(O)[nH]c3cc(Br)ccc23)[nH]c2ccccc12: 14.6%
CNc1cc2c(Nc3cccc(Br)c3)ncnc2cn1: 91.2%
O=C1NC(=O)c2c1c1c3ccccc3[nH]c1n1cncc21: 22.5%
CN(C)S(=O)(=O)c1ccc2c(c1)/C(=C/c1cc3c([nH]1)CCCC3)C(=O)N2: 32.4%
Cc1cc(Nc2cc(N3CCN(C)CC3)nc(Sc3ccc(NC(=O)C4CC4)cc3)n2)[nH]n1: 112%
Oc1cccc(-c2nc(N3CCOCC3)c3oc4ncccc4c3n2)c1: 91.1%
CC(C)(C)c1nc2c3cc[nH]c(=O)c3c3cc(F)ccc3c2[nH]1: 15.4%
N#Cc1cnc2cnc(NCc3cccnc3)cc2c1Nc1ccc(F)c(Cl)c1: 94.5%

Set 2
Cell line: HaCaT
Tested at: 100 µM
Time: 36 h
Endpoint: viability
CN1CCN2c3ncccc3Cc3ccccc3C2C1 (stereo not shown): 76.3%
O=c1ccc2ccc(OCCCCN3CCN(c4cccc5sccc45)CC3)cc2[nH]1: 6.2%
CC[C@]1(O)C[C@@H]2CN(CCc3c([nH]c4ccccc34)[C@@](C(=O)OC)(c3cc4c(cc3OC)N(C)[C@H]3[C@@](O)(C(=O)OC)[C@H](OC(C)=O)[C@]5(CC)C=CCN6CC[C@]43[C@@H]65)C2)C1: 9.69%
O=C1C(O)=C([C@H]2CC[C@H](c3ccc(Cl)cc3)CC2)C(=O)c2ccccc21: 11.3%
Cc1cc(Nc2ncc(Cl)c(Nc3ccccc3S(=O)(=O)C(C)C)n2)c(OC(C)C)cc1C1CCNCC1: 7.39%
CCn1cc(C(=O)O)c(=O)c2cc(F)c(N3CCNCC3)nc21: 45.8% and 110%
N#CCC(C1CCCC1)n1cc(-c2ncnc3[nH]ccc23)cn1 (stereo not shown): 13.2%
CC(C)[C@H]1CC[C@H](C(=O)N[C@H](Cc2ccccc2)C(=O)O)CC1: 111%

Set 3
SMILES: CS(=O)(=O)N1CCCC(NC(=O)[C@H](CCC2CCCCC2)NC(=O)c2ccc(CNc3ncnc4c3nnn4-c3ccccc3)cc2)C1 (stereo partly shown)
Read-out: cell-free assay
Method: competition with immobilised ligand
Tested at: 0.1 µM
Endpoint: remaining binding
Dual specificity protein kinase TTK (TTK, Homo sapiens, UniProt P33981): 91%
Cyclin-dependent kinase 4, with cyclin D3 (CDK4, Homo sapiens, UniProt P11802): 100%
Tyrosine-protein kinase Fgr (FGR, Homo sapiens, UniProt P09769): 88%
Protein kinase C eta type (PRKCH, Homo sapiens, UniProt P24723): 79%
Mitogen-activated protein kinase 3 (MAPK3, Homo sapiens, UniProt P27361): 89%

Set 4
Host: human
Matrix: microsomes or S9
Tested at: 2 µM
Time: 0.5 h
Endpoint: remaining compound
CCCN(CCC)C(=O)c1cc2cc(Cl)ncc2n1CCOC: 11.2%
COc1ccccc1CNC(=O)CCCCn1c(=O)c2ccccc2n(Cc2ccccc2C#N)c1=O: 1.96%
C[C@@H]1CN(c2ccncc2F)C[C@@]1(O)C1CCC1: 19.9%
O=C1COc2ccc(Cl)cc2CN1Cc1cc(F)cc(F)c1: 54.9%
CCc1nc2cc(Br)c(C(=O)OC)nc2n1CC(=O)c1ccccc1: 1.34%
CN1CC(c2n[nH]c(=O)n2CCc2ccccc2F)CC1=O (stereo not shown): > 99%
CCC(CO)Nc1ncc2cc3ccccc3nc2c1C#N (stereo not shown): 42.9%
CN(Cc1ccccc1)C(=O)c1c(OCC2CC2)cc(=O)n2c1CCOCC2: 99.3%

For quick reference, copied from above (set 1):
O=Nc1c(-c2c(O)[nH]c3cc(Br)ccc23)[nH]c2ccccc12: 14.6%
COc1cccc(-c2cc(=O)c3ccccc3o2)c1N: 84.9%
O=C1NC(=O)/C(=C/c2ccc3c(c2)OC(F)(F)O3)S1: 88%
CC(C)n1cnc2c(Nc3cccc(Cl)c3)nc(NCCO)nc21: 93.1%
CC(C)N(CCC(=O)c1ccc2ccccc2c1)Cc1ccccc1: 98%
